Results of several laboratories.
Lines come from different studies, so protocols differ. Changes are numbered by the printed parent chain. ± gives the spread as reported.
polA D424A: polA fragment D424A (Escherichia coli)
B1: enzyme (Streptomyces venezuelae, UniProt Q9ZGI2); chain SGADTGAGAGMFRALFRQAVEDDRYGEFLDVLAEASAFRPQFASPEACSERLDPVLLAGGPTDRAEGRAVLVGCTGTAANGGPHEFLRLSTSFQEERDFLAVPLPGYGTGTGTGTALLPADLDTALDAQARAILRAAGDAPVVLLGHSGGALLAHELAFRLERAHGAPPAGIVLVDPYPPGHQEPIEVWSRQLGEGLFAGELEPMSDARLLAMGRYARFLAGPRPGRSSAPVLLVRASEPLGDWQEERGDWRAHWDLPHTVADVPGDHFTMMRDHAPAVAEAVLSWLDAIEGIEGAGK
B2: protein (Thermotoga neapolitana, UniProt B9K712); chain MKMLYDLAKKRKTVRRFKKEKPPLEDLIYSLKVANEAPSGMNAQPWRFLIVEDEKLKGQIRRVCERSEKTFYENVRGRLKEWLDEKRFTWRKPFLKEAPYLLLVFSEKSAPYSRESVWLAVGYLLLALEEKGLGSVPYTPPDFREVEKLVNTPSELRLEVILPVGYPDDPKPKYPRNEVIVRYNTF
P1: MED17 (Saccharomyces cerevisiae); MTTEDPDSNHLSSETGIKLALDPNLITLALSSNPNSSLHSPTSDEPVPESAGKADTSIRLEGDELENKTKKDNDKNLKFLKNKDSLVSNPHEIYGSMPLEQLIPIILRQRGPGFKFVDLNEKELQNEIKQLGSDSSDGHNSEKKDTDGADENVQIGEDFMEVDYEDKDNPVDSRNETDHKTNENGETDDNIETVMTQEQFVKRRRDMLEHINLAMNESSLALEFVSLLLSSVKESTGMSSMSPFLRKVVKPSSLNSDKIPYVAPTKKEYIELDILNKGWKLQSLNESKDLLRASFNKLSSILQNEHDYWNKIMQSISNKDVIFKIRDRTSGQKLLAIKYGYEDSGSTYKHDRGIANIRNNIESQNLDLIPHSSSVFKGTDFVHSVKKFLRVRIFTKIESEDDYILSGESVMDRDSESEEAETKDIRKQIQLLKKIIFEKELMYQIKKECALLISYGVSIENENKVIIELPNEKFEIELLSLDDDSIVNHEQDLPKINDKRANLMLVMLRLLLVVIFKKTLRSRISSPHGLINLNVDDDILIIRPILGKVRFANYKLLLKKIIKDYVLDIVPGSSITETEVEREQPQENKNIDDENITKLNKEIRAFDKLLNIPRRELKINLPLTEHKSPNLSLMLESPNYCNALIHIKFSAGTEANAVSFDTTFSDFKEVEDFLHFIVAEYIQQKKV; partner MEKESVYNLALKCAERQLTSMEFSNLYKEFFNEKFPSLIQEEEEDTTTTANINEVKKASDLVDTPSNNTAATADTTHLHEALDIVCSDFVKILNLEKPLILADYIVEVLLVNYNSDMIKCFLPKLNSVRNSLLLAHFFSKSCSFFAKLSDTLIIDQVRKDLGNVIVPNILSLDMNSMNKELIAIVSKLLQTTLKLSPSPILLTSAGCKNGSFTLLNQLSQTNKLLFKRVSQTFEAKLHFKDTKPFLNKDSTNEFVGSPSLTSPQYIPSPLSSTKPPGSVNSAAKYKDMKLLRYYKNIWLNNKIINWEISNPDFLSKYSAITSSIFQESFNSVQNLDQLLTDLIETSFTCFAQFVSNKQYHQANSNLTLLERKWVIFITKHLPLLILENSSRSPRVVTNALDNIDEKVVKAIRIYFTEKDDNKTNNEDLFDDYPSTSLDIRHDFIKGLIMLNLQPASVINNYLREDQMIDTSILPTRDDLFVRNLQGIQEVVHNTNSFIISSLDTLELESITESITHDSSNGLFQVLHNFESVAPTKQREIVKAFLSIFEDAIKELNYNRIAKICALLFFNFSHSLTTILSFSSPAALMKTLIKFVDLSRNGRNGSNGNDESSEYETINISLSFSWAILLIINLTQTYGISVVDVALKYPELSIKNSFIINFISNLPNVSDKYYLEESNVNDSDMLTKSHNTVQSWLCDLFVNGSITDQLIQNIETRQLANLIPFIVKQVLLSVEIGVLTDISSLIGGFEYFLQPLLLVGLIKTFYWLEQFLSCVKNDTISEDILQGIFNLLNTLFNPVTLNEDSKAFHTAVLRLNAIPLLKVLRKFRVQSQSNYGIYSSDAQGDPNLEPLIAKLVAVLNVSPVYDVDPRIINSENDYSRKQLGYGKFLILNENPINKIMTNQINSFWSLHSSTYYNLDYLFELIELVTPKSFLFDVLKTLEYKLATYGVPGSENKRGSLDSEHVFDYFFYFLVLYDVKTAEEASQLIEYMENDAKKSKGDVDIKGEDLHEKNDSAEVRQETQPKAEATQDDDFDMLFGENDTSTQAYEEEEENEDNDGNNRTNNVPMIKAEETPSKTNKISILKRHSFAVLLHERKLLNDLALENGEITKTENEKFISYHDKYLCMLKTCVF
B3: enzyme (UniProt Q53796); chain MTEHPRAHTAHLRTARLELTPLDPAADARHLHHAYGDEEVMRWWTRPACADPAETERYLTSCAAAPGARLWTIRAPDGTVPGMAGLLGGTDVPGLTWLLRRDSWGHGYATEAAAAVVGHALEDGGLDRVEAWIEAGNRRSLAVAARVGLTERARLAQHYPHRPGPHEMVVLGKARAEEPLTTLAVITELPVRDVAATLRLVEAALGARTAFAIGDPPEFAEAALTPWSAGPRFRLAAVPGPGPVEPVRLHLDAAGTADSLHRRAVDAGARVDGPPVRRPWGRSEFVITLPEGHELTVSAPV
B4: genB3 Q310N (Micromonospora echinospora, UniProt Q2MG50); chain MDSANLTNRGLVERARRVTAAENYDIGTRFSAMIQSGEGAWLTDVEGNRYVDLTASSGTIILGHRNQAVTEAITRQIRDFGTAFASTLSVPRVELAERLCERYECAEKVVFHKTGSEGTAMAARLARAATGRELILSCGYHGWHEWQLAGETFGYQQTTGVVGFGYNEKALAKMLEAFGNEVAGVLISPELLYFDVEFYQRMYALCARYDVPFMMDEVYTGFRAGPKGVHGLGVPADVVVVSKGLANGHSLAAVMGRRDIIDAYDVSGINGTYTREVPPMAAAMAVLDVLDTPGVYEHAEAMGRRLADGMREILTGEGIPNWVGGPALMFDTVLPNDDLGWEIYKTAHDFGVYFEDSGTQLVTTAFDEAAVDHALTAFRKATRQVIADRPDIAPTSGGELTEERKLDFAEEAFGGLLRDDERTNALIDETIEKVVNRDRSIKPVLIPAQN
B5: AK1 (Homo sapiens, UniProt P00568); chain MEEKLKKTKIIFVVGGPGSGKGTQCEKIVQKYGYTHLSTGDLLRSEVSSGSARGKKLSEIMEKGQLVPLETVLDMLRDAMVAKVNTSKGFLIDGYPREVQQGEEFERRIGQPTLLLYVDAGPETMTQRLLKRGETSGRVDDNEETIKKRLETYYKATEPVIAFYEKRGIVRKVNAEGSVDSVFSQVCTHLDALK
B6: FNO G29S (Thermobifida fusca, UniProt Q47RA9); chain MIMIMASKSSPHDLPDVSGLSIAVLGGTSDQGRGLARRFAMAGHEVILGSRSAERAQAVAAELGEGLPVRGMDNAGAAEAGDVVIVAVPWDGHRALLESLKDVLAGKIVVDCVNPLGFDKRGAYALPVEEGSAAEQAAAILPDSRVVAAFHHVSAVLLLDPEVEKVDLDVLVLGDDREATDVVRALAARIPGVRGVYGGRLRNAHQVEAFTANLISINRRYKAHAGIRITDI
B7: DTYMK (Homo sapiens, UniProt P23919); chain MAARRGALIVLEGVDRAGKSTQSRKLVEALCAAGHRAELLRFPERSTEIGKLLSSYLQKKSDVEDHSVHLLFSANRWEQVPLIKEKLSQGVTLVVDRYAFSGVAFTGAKENFSLDWCKQPDVGLPKPDLVLFLQLQLADAAKRGAFGHERYENGAFQERALRCFHQLMKDTTLNWKMVDASKSIEAVHEDIRVLSEDAIRTATEKPLGELWK
B8: PPIP5K2 (Homo sapiens, UniProt O43314); chain MSEAPRFFVGPEDTEINPGNYRHFFHHADEDDEEEDDSPPERQIVVGICSMAKKSKSKPMKEILERISLFKYITVVVFEEEVILNEPVENWPLCDCLISFHSKGFPLDKAVAYAKLRNPFVINDLNMQYLIQDRREVYSILQAEGILLPRYAILNRDPNNPKECNLIEGEDHVEVNGEVFQKPFVEKPVSAEDHNVYIYYPTSAGGGSQRLFRKIGSRSSVYSPESNVRKTGSYIYEEFMPTDGTDVKVYTVGPDYAHAEARKSPALDGKVERDSEGKEVRYPVILNAREKLIAWKVCLAFKQTVCGFDLLRANGQSYVCDVNGFSFVKNSMKYYDDCAKILGNIVMRELAPQFHIPWSIPLEAED
Chain of UniProt Q94JM3 (whole entry, unmodified, looked up): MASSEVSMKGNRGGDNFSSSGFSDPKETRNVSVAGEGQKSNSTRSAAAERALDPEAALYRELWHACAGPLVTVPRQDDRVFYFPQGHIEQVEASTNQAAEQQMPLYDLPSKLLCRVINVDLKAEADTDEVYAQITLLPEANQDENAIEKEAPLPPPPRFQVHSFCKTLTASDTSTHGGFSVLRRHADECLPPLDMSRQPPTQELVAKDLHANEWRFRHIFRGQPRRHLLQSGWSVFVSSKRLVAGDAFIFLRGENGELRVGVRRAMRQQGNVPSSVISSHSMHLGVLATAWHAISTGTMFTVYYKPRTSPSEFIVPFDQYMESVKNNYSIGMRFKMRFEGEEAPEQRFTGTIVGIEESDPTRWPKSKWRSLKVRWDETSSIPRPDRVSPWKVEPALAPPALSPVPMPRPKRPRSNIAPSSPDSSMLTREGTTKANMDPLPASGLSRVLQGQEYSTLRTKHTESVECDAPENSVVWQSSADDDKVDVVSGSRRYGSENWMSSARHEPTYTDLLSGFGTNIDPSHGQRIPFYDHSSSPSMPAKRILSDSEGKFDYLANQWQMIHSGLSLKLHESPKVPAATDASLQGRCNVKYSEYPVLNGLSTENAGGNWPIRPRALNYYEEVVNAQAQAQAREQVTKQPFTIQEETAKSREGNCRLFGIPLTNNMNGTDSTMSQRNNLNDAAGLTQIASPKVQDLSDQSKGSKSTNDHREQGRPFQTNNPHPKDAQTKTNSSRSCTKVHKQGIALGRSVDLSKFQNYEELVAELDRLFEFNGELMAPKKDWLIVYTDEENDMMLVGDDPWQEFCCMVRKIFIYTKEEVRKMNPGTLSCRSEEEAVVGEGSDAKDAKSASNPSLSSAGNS
Chain of UniProt P10635 (whole entry, looked up): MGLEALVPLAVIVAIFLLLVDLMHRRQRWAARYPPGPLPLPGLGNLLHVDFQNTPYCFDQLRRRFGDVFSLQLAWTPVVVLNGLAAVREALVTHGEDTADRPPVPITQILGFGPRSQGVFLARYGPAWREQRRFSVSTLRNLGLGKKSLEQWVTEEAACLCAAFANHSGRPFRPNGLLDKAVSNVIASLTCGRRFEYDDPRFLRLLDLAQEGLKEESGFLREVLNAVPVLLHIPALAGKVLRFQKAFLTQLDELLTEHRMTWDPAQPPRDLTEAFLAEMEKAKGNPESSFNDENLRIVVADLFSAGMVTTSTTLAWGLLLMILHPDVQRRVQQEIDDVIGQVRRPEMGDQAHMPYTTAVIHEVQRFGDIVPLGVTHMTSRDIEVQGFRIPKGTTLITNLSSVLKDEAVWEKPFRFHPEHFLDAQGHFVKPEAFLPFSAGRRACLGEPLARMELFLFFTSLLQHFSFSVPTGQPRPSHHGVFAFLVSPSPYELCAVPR

CCTCTTCCCTCACCTCTTCTTGACCTCATTCGTACCCATTGACCTTCGCAACCACCTGCGAAGGTCAATGGGTACGAATGAGGT (hairpin DNA; hairpin, 5' overhang, 3' ddT)
Kd (polA D424A; SPR; together with: dTTP 100 µM): 3.6 ± 0.95 nM

GACAUGGUCCGGUAGUUCAGUUGGUUAGAAUGCCUGCCUGUCACGCAGGAGGUCGCGGGUUCGAGUCCCGUCCGGACCG (tRNA (Bacillus subtilis); 5'-GMPS, tRNA fold)
relative affinity (PRORP1 77-572 R184K (Arabidopsis thaliana, UniProt Q66GI4); fluorescence anisotropy; folded RNA; NaCl 1 M, extrapolated; reference: wild-type target): 10 fold

CYP2D6 (Homo sapiens, UniProt P10635)
kcat/Km (CC(C)(C)NC(CO)c1cc(Cl)c(N)c(C(F)(F)F)c1; steady-state kinetics; pH 7.4, 37 °C, not purified): 76.2 M⁻¹ s⁻¹

enzyme (Actinoalloteichus caeruleus, UniProt M1F4W9)
kcat/Km (CC(C)C[C@H](NC(=O)c1cc(O)cc(-c2ccccn2)n1)C(=O)O; steady-state kinetics; pH 8, 30 °C): 8440 M⁻¹ s⁻¹

B1 (enzyme)
kcat/Km (CC[C@H](O)[C@H](C)/C=C/C(=O)[C@H](C)C[C@H](C)[C@H](OC)[C@@H](C)C(=O)SCCNC(C)=O; steady-state kinetics): 138 ± 2.67 M⁻¹ s⁻¹

B2 (protein)
kcat/Km (N[C@@H](Cc1ccc(O)c(Cl)c1)C(=O)O; steady-state kinetics; pH 7.4, 60 °C): 10000 ± 5000 M⁻¹ s⁻¹

P1 Q444P
peptide counts (MED5 (Saccharomyces cerevisiae); co-IP mass spectrometry; crude extract; higher = more binding): 11

B3 (enzyme)
kcat/Km (Cc1c(N)nc([C@H](CC(N)=O)NC[C@H](N)C(N)=O)nc1C(=O)N[C@H](C(=O)N[C@H](C)[C@@H](O)[C@H](C)C(=O)N[C@H](C(=O)NCCc1nc(-c2nc(C(=O)NCCCCNC(=N)N)cs2)cs1)[C@@H](C)O)[C@@H](O[C@@H]1O[C@@H](CO)[C@@H](O)[C@H](O)[C@@H]1O[C@H]1O[C@H](CO)[C@@H](O)[C@H](OC(N)=O)[C@@H]1O)c1c[nH]cn1; steady-state kinetics; pH 7.5, 30 °C): 13000 M⁻¹ s⁻¹

CCTCTTCCCTCACCTCTTCTTGACCTCATTCGTACCCATTGACCTTCGCAACCACCTGCGAAGGTCAATGGGTACGAATGAGGT (hairpin DNA; hairpin, 5' overhang, dG-C8-FABP 22, 3' ddT)
Kd (polA D424A; SPR; together with: dTTP 100 µM): 0.36 ± 0.07 nM

B4 (genB3 Q310N)
kcat/Km (CN[C@@H]1[C@@H](O)[C@@H](O[C@@H]2[C@@H](O)[C@H](O[C@H]3O[C@H](CN)[C@@H](O)[C@H](OP(=O)(O)O)[C@H]3N)[C@@H](N)C[C@H]2N)OC[C@]1(C)O; steady-state kinetics; 30 °C): 103 M⁻¹ s⁻¹

B5 (AK1)
kcat/Km (Nc1ccn(C2OC(COP(=O)(O)O)C(O)C2O)c(=O)n1; steady-state kinetics; 37 °C, together with: ATP 1 mM): 9500 M⁻¹ s⁻¹

B6 (FNO G29S)
kcat/Km (NC(=O)C[n+]1cccc(C(N)=O)c1; steady-state kinetics; pH 8, 25 °C, together with: F420H2 40 µM): 8.8 ± 1.3 M⁻¹ s⁻¹

B7 (DTYMK)
kcat/Km (Cc1cn([C@H]2C[C@H](O)[C@@H](COP(=O)(O)O)O2)c(=O)[nH]c1=O; steady-state kinetics; together with: ATP 2 mM, Mg2+ 2 mM): 150000 M⁻¹ s⁻¹

AGTCTTTTTGGTCTCTGGTCGGTCGACAATCCGTGTG (dsDNA; 5-C6-amino-dT labels)
K1/2 (ARF2 1-859 D797S/D798S (Arabidopsis thaliana, UniProt Q94JM3); smFRET titration; double-stranded DNA, one strand shown): 181 nM

B8 (PPIP5K2)
kcat/Km (O=P(O)(O)O[C@@H]1[C@@H](OP(=O)(O)O)[C@H](OP(=O)(O)OP(=O)(O)O)[C@@H](OP(=O)(O)O)[C@H](OP(=O)(O)OP(=O)(O)O)[C@@H]1OP(=O)(O)O; steady-state kinetics): 8.5e+06 M⁻¹ s⁻¹

Some of these lines once more:
B6 (FNO G29S)
kcat/Km (NC(=O)C[n+]1cccc(C(N)=O)c1; steady-state kinetics; pH 8, 25 °C, together with: F420H2 40 µM): 8.8 ± 1.3 M⁻¹ s⁻¹
